# Published values collected from several papers.
# A part holds a random share of what one study measured. Changes are numbered by the printed parent chain.

# Series 1 — target: CCNB3, cyclin fold, Cln2 fusion (human); method: yeast growth competition, sequencing; sample: yeast; notes: weak parent motif; baseline: not given; direction: higher = stronger binding
# Parent: PKN2 docking peptide (human); VSAVQKLDFSDTM; partner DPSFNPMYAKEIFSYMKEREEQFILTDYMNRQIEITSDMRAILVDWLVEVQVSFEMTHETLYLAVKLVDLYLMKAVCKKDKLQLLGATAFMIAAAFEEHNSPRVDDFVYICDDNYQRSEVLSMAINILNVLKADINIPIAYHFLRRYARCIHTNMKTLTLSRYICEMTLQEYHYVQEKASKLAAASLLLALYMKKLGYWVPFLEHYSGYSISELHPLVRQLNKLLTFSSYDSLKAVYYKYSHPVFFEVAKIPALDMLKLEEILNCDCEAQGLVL
Variant,normalised enrichment score
VSAVQKEDFSDTM [L7E],0.0511
VSAVQKNDFSDTM [L7N],0.133
VSEVQKLDFSDTM [A3E],0.32
PSAVQKLDFSDTM [V1P],0.474
YSAVQKLDFSDTM [V1Y],0.417
GSAVQKLDFSDTM [V1G],0.206

# Series 2 — method: Spec-seq; molecule type: double-stranded DNA, one strand shown; sample: in vitro; tested at: not given; notes: whole probe, mean of replicates; baseline: not given; direction: lower = stronger binding; shared flanks, not repeated: GAGTCGTCTCGTCAGCAC … TCCGTAGAGCACTCAGGTC
# Target: POU domain, class 5, transcription factor 1, POU domain (Pou5f1, Mus musculus, UniProt P20263, residues 131-289)
# Chain of UniProt P20263 (131-289, looked up): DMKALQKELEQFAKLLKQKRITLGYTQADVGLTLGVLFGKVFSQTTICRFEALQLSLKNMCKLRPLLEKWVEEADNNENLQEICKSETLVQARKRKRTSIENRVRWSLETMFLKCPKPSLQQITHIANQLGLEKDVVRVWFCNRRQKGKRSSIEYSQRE
Oligonucleotide,relative binding energy [ln ratio]
ATTTACA,-2.71
CACATAA,0.118
ATGCATT,-1.02
ATCATTA,-0.0671
ATAACGA,0.336
TACTTAA,0.379
ATGCTGA,-0.368

# Series 3 — method: aptamer microarray, sandwich; molecule type: DNA with 2'F-ANA; sample: in vitro; tested at: 200 nM; together with: Cy3 exosite-II aptamer, 400 nM; direction: higher = stronger binding; oligonucleotide: GGTTGGTGTGGTTGG
# Target: Prothrombin, mature alpha-thrombin (F2, Homo sapiens, UniProt P00734)
# Notes: whole 15-mer aptamer, many near background
Modification,mean fluorescence intensity [a.u.]
2'F-ANA at 3 4 5 7 12 15,391
2'F-ANA at 6 8 9 11 12 13 15,555
2'F-ANA at 1 6 8 9 15,189
2'F-ANA at 4 5 8 9 11 13 14 15,50.4
2'F-ANA at 1 2 9 11 13 15,116

# Mixed results
Molecule,target,test,system,conditions,how to read,measurement,value
"PhoQ, residues 284 288 289 292 302 303 ALASRC","PhoP, residues 12 14 15 18 19 NQAHL (Escherichia coli, UniProt P23836)","Sort-seq, measured: YFP reporter",E. coli,"PhoQ-PhoP variant library, together with: 10 µM Mg2+","baseline: high Mg2+ state, higher = stronger signaling",fold induction,1.42
